Published values pooled from the literature.
Compare with care: the assays were run in different laboratories.
Organism: Acinetobacter baumannii

CC(C)C[C@@H]1NC(=O)[C@@H](CC(C)C)NC(=O)[C@H](CCN)NC(=O)[C@@H](NC(=O)[C@H](CCN)NC(=O)[C@@H](N)[C@@H](C)O)CCNC(=O)[C@H]([C@@H](C)O)NC(=O)[C@H](CCN)NC(=O)[C@H](CCN)NC1=O
MIC (broth microdilution; ATCC 9955, CAMHB with polysorbate-80; 16 h): > 64 µg/mL

CC(C)CCCCC(=O)N[C@@H](CCN)C(=O)N[C@H](C(=O)N[C@@H](CCN)C(=O)N[C@H]1CCNC(=O)[C@H]([C@@H](C)O)NC(=O)[C@H](CCN)NC(=O)[C@H](CCN)NC(=O)[C@H](CC(C)C)NC(=O)[C@@H](Cc2ccccc2)NC(=O)[C@H](CCN)NC1=O)[C@@H](C)O
MIC (broth microdilution; ATCC 19606; 37 °C): 0.25 µg/mL

NCC1OC(OC2C(N)CC(N)C(OC3OC(CO)C(O)C(N)C3O)C2OCCCCn2cc(CNc3nc(NCc4cn(CCCCOC5C(OC6OC(CN)C(O)CC6N)C(N)CC(N)C5OC5OC(CO)C(O)C(N)C5O)nn4)nc(NCc4cn(CCCCOC5C(OC6OC(CN)C(O)CC6N)C(N)CC(N)C5OC5OC(CO)C(O)C(N)C5O)nn4)n3)nn2)C(N)CC1O (stereo not shown)
MIC (microbial growth, broth dilution; ATCC17978): > 128 µg/mL

CC1=CC2(C)C(=C(C)C3C4CC(C)CC(C)C4C4Oc5ccc(cc5)CC5(O)NC(=O)C(=C(O)C2C43)C5Nc2ncnc3c2ncn3C2OC(CO)C(O)C2O)C1C (stereo not shown)
MIC (broth microdilution; ATCC BAA-1605; added: colistin 0.1 µM): 3.1 µM

C/C(=N\NC(=N)N)c1nnn(-c2ccc(S(=O)(=O)NCCCCC(C)C)cc2)c1C
MIC (microbial growth, broth dilution; AB5075): > 64 µg/mL

COc1ccc2ccc3c(c2c1)C=[N+]1C2CCCCC2[N+]2=Cc4c(F)cccc4[O][Au-]21[O]3.F[P-](F)(F)(F)(F)F (stereo not shown)
MIC (bacterial growth, broth microdilution; carbapenem-resistant clinical isolate; 24 h): > 20 µM

CC[S+]([O-])C1C(CO)OC(OC2C(N)CC(N)C(O)C2OC2OC(CO)C(OC3OC(CN)C(O)C(O)C3N)C2O)C(N)C1O (mixture of isomers)
MIC (reference strain): > 128 µg/mL

CCn1cc[n+](CC)[c]1[Au-]([Cl])([Cl])[Cl]
MIC (broth dilution; DSM 30007; 20 h, 37 °C): 2.3 µM

c1ccc(CSc2nc3ccccc3cc2CNCCC2CCN(C3CCCC3)CC2)cc1
MIC (microbial growth, broth dilution): 32 µg/mL

CC(C)C[C@H](NC(=O)[C@H](CC(N)=O)NC(=O)[C@H](CCCNC(=N)N)NC(=O)[C@@H](CC(C)C)NC(=O)[C@H](Cc1ccccc1)NC(=O)[C@H](CC(=O)O)NC(=O)[C@H](CCCCN)NC(=O)[C@@H](CC(C)C)NC(=O)[C@H](CCCNC(=N)N)NC(=O)[C@H](CCC(N)=O)NC(=O)[C@@H](NC(=O)[C@@H](CC(C)C)NC(=O)[C@H](CCCNC(=N)N)NC(=O)[C@H](CCCCN)NC(=O)[C@H](Cc1ccc(C(F)(F)F)cc1)NC(=O)CN)C(C)C)C(=O)N[C@H](C(N)=O)C(C)C
MIC (broth microdilution; B2367-12): 3.1 to 6.2 µM

Repeated from above:
CC(C)C[C@H](NC(=O)[C@H](CC(N)=O)NC(=O)[C@H](CCCNC(=N)N)NC(=O)[C@@H](CC(C)C)NC(=O)[C@H](Cc1ccccc1)NC(=O)[C@H](CC(=O)O)NC(=O)[C@H](CCCCN)NC(=O)[C@@H](CC(C)C)NC(=O)[C@H](CCCNC(=N)N)NC(=O)[C@H](CCC(N)=O)NC(=O)[C@@H](NC(=O)[C@@H](CC(C)C)NC(=O)[C@H](CCCNC(=N)N)NC(=O)[C@H](CCCCN)NC(=O)[C@H](Cc1ccc(C(F)(F)F)cc1)NC(=O)CN)C(C)C)C(=O)N[C@H](C(N)=O)C(C)C
MIC (broth microdilution; B2367-12): 3.1 to 6.2 µM
